Experimental data pooled from the literature.
Each line is one published result; not all experiments were run side by side. ± marks the error that the study gave.
Protein AF-9 with DOT1L: Protein AF-9, with DOT1L (Homo sapiens, UniProt P42568)
Sequence of UniProt P42568 (whole entry, looked up): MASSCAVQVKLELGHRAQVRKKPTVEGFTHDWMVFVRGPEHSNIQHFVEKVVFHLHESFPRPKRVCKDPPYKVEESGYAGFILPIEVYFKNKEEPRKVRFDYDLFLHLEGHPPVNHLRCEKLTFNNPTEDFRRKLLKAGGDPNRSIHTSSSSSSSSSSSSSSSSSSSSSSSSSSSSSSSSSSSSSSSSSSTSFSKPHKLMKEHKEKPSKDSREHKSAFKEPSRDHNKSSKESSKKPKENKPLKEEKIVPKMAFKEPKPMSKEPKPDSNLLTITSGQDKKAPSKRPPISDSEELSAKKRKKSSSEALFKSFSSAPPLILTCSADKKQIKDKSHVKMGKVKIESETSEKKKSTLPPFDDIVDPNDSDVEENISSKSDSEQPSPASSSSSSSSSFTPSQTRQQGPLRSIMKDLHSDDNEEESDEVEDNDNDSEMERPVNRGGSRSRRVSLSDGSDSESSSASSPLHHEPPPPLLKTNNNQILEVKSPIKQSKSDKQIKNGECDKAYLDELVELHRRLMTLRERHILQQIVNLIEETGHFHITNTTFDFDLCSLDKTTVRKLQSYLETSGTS
CSNK1D: Casein kinase I isoform delta (CSNK1D, Homo sapiens, UniProt P48730)
Sequence of UniProt P48730 (whole entry, looked up): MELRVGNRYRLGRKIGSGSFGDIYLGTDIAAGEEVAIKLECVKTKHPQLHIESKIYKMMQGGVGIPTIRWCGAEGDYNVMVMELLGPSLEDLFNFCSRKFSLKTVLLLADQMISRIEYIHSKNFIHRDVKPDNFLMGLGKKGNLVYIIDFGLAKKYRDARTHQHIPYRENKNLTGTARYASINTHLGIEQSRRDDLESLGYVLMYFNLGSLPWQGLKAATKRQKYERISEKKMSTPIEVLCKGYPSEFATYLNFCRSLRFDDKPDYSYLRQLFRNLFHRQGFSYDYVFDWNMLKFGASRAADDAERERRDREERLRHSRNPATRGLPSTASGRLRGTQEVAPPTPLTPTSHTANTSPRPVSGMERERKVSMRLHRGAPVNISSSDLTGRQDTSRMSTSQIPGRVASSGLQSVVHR
Dihydrofolate reductase type 2: Dihydrofolate reductase type 2 (Escherichia coli, UniProt P00383)
Sequence of UniProt P00383 (whole entry, looked up): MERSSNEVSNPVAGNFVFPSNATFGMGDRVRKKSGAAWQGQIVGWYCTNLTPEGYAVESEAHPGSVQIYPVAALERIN
CYP2E1: Cytochrome P450 2E1 (CYP2E1, Homo sapiens, UniProt P05181)
Sequence of UniProt P05181 (whole entry, looked up): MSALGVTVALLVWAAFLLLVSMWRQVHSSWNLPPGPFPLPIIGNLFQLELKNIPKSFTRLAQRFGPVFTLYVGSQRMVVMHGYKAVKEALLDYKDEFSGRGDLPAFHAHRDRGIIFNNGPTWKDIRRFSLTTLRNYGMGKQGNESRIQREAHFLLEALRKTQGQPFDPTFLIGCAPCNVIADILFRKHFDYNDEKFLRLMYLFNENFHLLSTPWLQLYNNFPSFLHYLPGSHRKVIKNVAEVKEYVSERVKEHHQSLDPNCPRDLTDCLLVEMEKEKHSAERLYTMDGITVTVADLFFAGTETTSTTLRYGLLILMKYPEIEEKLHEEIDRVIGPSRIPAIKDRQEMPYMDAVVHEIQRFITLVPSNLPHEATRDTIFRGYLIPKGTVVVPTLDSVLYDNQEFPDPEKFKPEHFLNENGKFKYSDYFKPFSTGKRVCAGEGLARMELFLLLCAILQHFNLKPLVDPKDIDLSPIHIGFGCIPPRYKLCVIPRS
PSMB5: Proteasome Macropain subunit MB1 (PSMB5, Homo sapiens, UniProt P28074)
Sequence of UniProt P28074 (whole entry, looked up): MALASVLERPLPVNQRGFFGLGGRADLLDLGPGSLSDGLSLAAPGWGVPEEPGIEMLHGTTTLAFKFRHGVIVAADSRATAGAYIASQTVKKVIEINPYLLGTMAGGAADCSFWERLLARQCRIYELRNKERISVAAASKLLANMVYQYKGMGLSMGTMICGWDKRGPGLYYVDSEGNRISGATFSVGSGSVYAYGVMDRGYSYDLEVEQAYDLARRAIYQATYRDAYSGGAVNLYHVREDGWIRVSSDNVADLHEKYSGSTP
Proteasome component C5/PSMB5: Proteasome component C5/PSMB5 (Homo sapiens, UniProt P20618+P28074)
Sequence of UniProt P20618 (whole entry, looked up): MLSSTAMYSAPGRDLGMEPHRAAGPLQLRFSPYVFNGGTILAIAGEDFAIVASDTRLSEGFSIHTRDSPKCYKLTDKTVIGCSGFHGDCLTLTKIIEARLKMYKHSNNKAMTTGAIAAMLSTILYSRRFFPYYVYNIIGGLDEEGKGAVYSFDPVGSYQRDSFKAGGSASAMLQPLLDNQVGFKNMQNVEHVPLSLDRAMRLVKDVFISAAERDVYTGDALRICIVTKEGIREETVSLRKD
GBA1 R534H: Lysosomal acid glucosylceramidase (GBA1, Homo sapiens, UniProt P04062, R534H)
PLG: Plasminogen (PLG, Homo sapiens, UniProt P00747)
Sequence of UniProt P00747 (whole entry, looked up): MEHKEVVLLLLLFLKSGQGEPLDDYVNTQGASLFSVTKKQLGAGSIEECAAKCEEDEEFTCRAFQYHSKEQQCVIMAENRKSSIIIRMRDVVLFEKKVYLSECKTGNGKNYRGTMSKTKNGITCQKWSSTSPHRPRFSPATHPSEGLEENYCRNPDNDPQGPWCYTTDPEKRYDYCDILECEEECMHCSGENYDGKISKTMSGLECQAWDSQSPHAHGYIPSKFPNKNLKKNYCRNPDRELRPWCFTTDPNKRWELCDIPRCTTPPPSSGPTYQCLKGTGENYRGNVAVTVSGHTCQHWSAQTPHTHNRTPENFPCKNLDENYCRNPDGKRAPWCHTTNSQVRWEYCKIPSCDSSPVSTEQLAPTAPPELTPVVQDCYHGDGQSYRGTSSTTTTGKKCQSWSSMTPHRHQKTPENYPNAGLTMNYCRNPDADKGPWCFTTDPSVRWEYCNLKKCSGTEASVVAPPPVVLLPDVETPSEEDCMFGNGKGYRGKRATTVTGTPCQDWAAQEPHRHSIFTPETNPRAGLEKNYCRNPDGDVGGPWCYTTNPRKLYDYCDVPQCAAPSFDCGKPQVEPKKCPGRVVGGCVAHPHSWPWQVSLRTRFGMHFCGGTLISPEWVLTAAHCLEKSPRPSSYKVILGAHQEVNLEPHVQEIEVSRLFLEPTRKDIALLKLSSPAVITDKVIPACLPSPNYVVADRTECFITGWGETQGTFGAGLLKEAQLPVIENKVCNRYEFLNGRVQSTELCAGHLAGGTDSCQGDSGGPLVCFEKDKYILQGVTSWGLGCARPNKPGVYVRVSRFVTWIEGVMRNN
Protein AF-9 with AF4: Protein AF-9, with AF4 (Homo sapiens, UniProt P42568)
AR: Androgen receptor (AR, Homo sapiens, UniProt P10275)
Sequence of UniProt P10275 (whole entry, looked up): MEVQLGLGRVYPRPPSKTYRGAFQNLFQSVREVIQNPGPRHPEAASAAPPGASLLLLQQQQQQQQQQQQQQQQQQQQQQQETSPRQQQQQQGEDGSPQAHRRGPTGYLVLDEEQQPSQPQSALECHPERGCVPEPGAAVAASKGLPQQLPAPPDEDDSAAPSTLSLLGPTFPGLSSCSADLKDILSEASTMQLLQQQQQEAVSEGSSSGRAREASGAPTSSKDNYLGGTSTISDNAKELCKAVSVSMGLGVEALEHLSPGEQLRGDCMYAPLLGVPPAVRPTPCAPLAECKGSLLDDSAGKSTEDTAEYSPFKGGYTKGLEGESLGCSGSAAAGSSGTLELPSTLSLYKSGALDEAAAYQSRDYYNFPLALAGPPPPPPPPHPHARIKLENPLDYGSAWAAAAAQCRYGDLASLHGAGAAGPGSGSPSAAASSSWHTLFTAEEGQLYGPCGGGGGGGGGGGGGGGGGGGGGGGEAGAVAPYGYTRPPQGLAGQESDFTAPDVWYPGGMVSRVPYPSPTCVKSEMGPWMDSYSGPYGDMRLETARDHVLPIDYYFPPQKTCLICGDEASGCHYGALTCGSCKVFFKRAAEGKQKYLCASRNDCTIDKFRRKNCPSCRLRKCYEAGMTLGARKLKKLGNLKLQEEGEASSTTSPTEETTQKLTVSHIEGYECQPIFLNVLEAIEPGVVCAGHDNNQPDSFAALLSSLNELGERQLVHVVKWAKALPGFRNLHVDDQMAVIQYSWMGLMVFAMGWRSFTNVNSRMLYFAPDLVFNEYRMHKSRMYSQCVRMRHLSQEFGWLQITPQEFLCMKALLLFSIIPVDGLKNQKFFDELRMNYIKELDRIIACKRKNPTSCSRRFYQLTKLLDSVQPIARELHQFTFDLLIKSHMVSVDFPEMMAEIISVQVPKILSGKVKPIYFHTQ
RET: Proto-oncogene tyrosine-protein kinase receptor Ret (RET, Homo sapiens, UniProt P07949)
Sequence of UniProt P07949 (whole entry, looked up): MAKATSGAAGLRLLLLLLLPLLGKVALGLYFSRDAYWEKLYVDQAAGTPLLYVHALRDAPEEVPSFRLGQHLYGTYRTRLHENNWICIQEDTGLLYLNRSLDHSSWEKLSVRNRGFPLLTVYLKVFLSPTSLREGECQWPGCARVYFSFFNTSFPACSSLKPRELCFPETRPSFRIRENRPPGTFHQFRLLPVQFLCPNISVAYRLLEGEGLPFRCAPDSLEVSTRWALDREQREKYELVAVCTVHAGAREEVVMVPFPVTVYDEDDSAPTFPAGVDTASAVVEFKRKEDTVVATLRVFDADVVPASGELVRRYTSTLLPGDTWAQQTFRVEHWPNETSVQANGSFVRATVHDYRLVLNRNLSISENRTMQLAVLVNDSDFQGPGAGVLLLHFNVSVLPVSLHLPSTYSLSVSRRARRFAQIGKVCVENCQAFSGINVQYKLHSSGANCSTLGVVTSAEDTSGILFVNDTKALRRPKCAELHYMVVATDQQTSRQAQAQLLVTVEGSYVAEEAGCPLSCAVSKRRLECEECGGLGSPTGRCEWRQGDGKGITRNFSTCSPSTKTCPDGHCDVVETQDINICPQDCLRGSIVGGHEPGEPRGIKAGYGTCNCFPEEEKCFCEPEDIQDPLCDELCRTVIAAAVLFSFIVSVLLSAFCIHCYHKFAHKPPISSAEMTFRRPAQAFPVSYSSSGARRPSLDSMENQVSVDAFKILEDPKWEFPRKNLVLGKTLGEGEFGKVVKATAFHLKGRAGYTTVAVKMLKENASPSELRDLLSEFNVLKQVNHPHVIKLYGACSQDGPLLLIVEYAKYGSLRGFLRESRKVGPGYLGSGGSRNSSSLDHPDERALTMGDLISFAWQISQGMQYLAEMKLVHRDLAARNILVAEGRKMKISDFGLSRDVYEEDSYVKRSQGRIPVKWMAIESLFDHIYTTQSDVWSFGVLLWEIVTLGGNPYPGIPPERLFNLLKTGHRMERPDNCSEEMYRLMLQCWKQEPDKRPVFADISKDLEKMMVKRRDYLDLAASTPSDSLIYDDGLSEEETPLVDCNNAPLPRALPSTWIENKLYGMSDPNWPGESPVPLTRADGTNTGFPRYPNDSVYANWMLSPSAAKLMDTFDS

Structure (SMILES)	target	assay	system	conditions	IC50
Fc1cccc(Nc2ccc3ncc(OCC4CCNCC4)nc3c2)c1	Protein AF-9 with DOT1L	DOT1L binding, AlphaLISA			2.1 µM
CCc1ccc(Cn2nnc3c4ccc(F)cc4c(=O)[nH]c32)cc1	Protein mono-ADP-ribosyltransferase PARP10 (PARP10, Homo sapiens, UniProt Q53GL7)				> 10 µM
Fc1ccc(-c2nc(-c3c(Cl)cccc3Cl)[nH]c2-c2ccncc2)cc1	CSNK1D	inhibitor			0.0208 ± 0.0094 µM
CNC(=O)c1ccc2nc(-c3ccc(OCCCOc4ccc(-c5nc6ccc(C(=O)NC)cc6[nH]5)cc4Br)c(Br)c3)[nH]c2c1	Dihydrofolate reductase type 2	enzyme activity		pH 7	> 100 µM
C[C@@H]1O[C@@H](O[C@@H]2[C@@H](O)[C@H](OCCc3ccc(O)c(O)c3)O[C@H](CO)[C@H]2OC(=O)/C=C/c2ccc(O)c(O)c2)[C@H](O)[C@H](O)[C@H]1O	alpha-glucosidase	inhibitor	biochemical		42.28 ± 0.17 µg/mL
CC1CC(C)CN(c2ccc(C=NNc3nc(-c4ccc(Cl)c(Cl)c4)cs3)cc2)C1 (stereo not drawn)	alpha-glucosidase	enzyme activity, inhibitor		together with: p-nitrophenyl-alpha-D-glucopyranoside	17.8 µM
CCc1oc2ccccc2c1C(=O)c1cc(Br)c(O)c(Br)c1	CYP2E1	p-nitrophenol hydroxylation, inhibitor	baculosomes	10 min, with additive 100 µM	129 µM
CC(C)C[C@H](NC(=O)c1cc(Cl)ccc1Cl)C(=O)N[C@@H](CC(C)C)C(=O)N[C@H](/C=C/S(C)(=O)=O)Cc1ccc(CN)cc1	PSMB5	competitive ABPP	Raji cell lysate		5.51 µM
CC(C)C[C@H](NC(=O)[C@H](CCc1ccccc1)NC(=O)OCc1ccccc1)C(=O)N[C@@H](Cc1ccccc1)C(=O)NN(CC(C)C)C(=O)/C=C/C(=O)NCc1ccccc1	Proteasome component C5/PSMB5	chymotrypsin-like activity, inhibitor	human 20S proteasome	together with: Suc-LLVY-AMC 100 µM	11.3 ± 4.2 µM
O=C(O)c1ccc2[nH]c(-c3ccc(OCCC(O)COc4ccc(-c5nc6cc(C(=O)O)ccc6[nH]5)cc4)cc3)nc2c1 (stereo not drawn)	Dihydrofolate reductase type 2	enzyme activity		pH 7	113 ± 13 µM
O[C@@H]1[C@@H](O)[C@@H]2O[C@@H]2[C@H](Cn2cc(CCCOCc3ccc(-c4ccccc4)cc3)nn2)[C@H]1O	GBA1 R534H				0.001 µM
COc1cccc(CNC(=O)c2cn(Cc3ccc(Cn4ccccc4=O)cc3)nc2C2CC2)c1F	PLG				> 40 µM
c1cc(-c2cc3ncc(OCC4CCNCC4)nc3cc2-c2cccc(N3CCCCC3)c2)cc(N2CCCCC2)c1	Protein AF-9 with DOT1L	DOT1L binding, AlphaLISA			1.9 ± 0.15 µM
CC(C)(C)OC(=O)n1cccc1-c1cn(S(=O)(=O)c2ccccc2)c2c1C(=O)C(=O)C=C2	ELAV-like protein 1, RRM1-RRM2 domains (ELAVL1, Homo sapiens, UniProt Q15717)	HuR-RNA complex formation, REMSA		together with: 1 nM labelled RNA probe	1.8 µM
c1ccc(Oc2ccc(Nc3ccc4ncc(OCC5CCNCC5)nc4c3)cc2)cc1	Protein AF-9 with AF4	AlphaScreen			1.5 ± 0.31 µM
O=[N+]([O-])c1ccccc1-c1nc(-c2ccc(F)cc2)c(-c2ccncc2)[nH]1	CSNK1D	inhibitor			0.0143 ± 0.0044 µM
COc1cc(-c2cc(C(C)=O)n3ccccc23)cc(OC)c1Cn1ccnc1	Bromodomain-containing protein 9 (BRD9, Homo sapiens, UniProt Q9H8M2)	inhibitor			0.0025 µM
COc1ccc(C[C@H](NC(=O)[C@H](C)NC(=O)CN2CCOCC2)C(=O)N[C@@H](CCC2CCCCC2)C(=O)[C@@]2(C)CO2)cc1	PSMB5	competitive ABPP	Raji cell lysate		> 10 µM
Oc1ccc(Cl)cc1Nc1nc(NCC2CCCO2)c2ccccc2n1 (stereo not drawn)	GBA1 R534H	enzyme activity, inhibitor		20 min, room temperature, together with: 4MU-β-glucoside 800 µM	0.16 µM
O=C(Nc1ccccc1)c1cc([N+](=O)[O-])ccc1Cl	Peroxisome proliferator-activated receptor gamma (PPARG, Homo sapiens, UniProt P37231)	TR-FRET competitive binding		together with: Fluormone tracer	0.005 µM
Cc1ncc(C(=O)N[C@@H](CC(C)C)C(=O)N[C@@H](CC2CCCC3CCCCC32)C(=O)N[C@H](/C=C/S(C)(=O)=O)Cc2ccc(CN)cc2)s1 (stereo partly drawn)	PSMB5	competitive ABPP	Raji cell lysate		> 10 µM
CC1CC(C)CN(c2ccc(C=NNc3nc(-c4ccc(F)cc4)cs3)cc2)C1 (stereo not drawn)	alpha-glucosidase	enzyme activity, inhibitor		together with: p-nitrophenyl-alpha-D-glucopyranoside	16.5 µM
CC(C)N(CCC(=O)c1ccc2ccccc2c1)Cc1ccccc1	Protein-glutamine gamma-glutamyltransferase (TGM2, Homo sapiens, UniProt P21980)	enzyme activity, inhibitor		together with: no DTT	0.01 ± 0.01 µM
C[C@H](CCC(=O)O)[C@@H]1CC[C@H]2[C@@H]3CCC4=CC(=O)CC[C@]4(C)[C@H]3CC[C@@]21C	AR	reporter gene, antagonist, luciferase reporter	cells expressing human AR	together with: 45 pM agonist	0.134 µM
Fc1ccc(Oc2ccc(Nc3ccc4ncc(OCC5CCNCC5)nc4c3)cc2)cc1	Protein AF-9 with AF4	AlphaScreen			1 ± 0.07 µM
Nc1ccccc1-c1nc(-c2ccc(F)cc2)c(-c2ccncc2)[nH]1	CSNK1D	inhibitor			2.47 ± 0.165 µM

Structure (SMILES)	target	assay	system	conditions	IC50
CCC(F)(F)c1cc(N2C(=O)NC(C)(C)C2=O)ccc1F	AR	reporter gene, antagonist	LAPC4	24 h, together with: DHT 10 nM	> 100 µM
Cc1cccc(C)c1-c1nc(-c2ccc(F)cc2)c(-c2ccncc2)[nH]1	CSNK1D	inhibitor			0.0227 ± 0.0015 µM
CC(C)C[C@H](NC(=O)OCc1ccccc1)C(=O)N[C@@H](CC(C)C)C(=O)NN(CC(C)C)C(=O)/C=C/C(=O)NCc1ccccc1	Proteasome component C5/PSMB5	chymotrypsin-like activity, inhibitor	human 20S proteasome	together with: Suc-LLVY-AMC 100 µM	0.9 ± 0.2 µM
COc1cc(/C=N/n2c(C)nc3ccc(Br)cc3c2=O)ccc1OCc1ccc(Cl)cc1	Phospholipase A2, membrane associated (Homo sapiens, UniProt P14555)	enzyme activity, inhibitor, colorimetric			49.7 ± 2.12 µM
Nc1nc(SCC(=O)Nc2ccc3c(c2)OCO3)[nH]c(=O)c1NC(=O)c1ccc(F)c(F)c1	RET	kinase activity, inhibitor		replicate three, together with: 1 µM ATP, poly(Glu,Tyr)	171 µM
COc1ccc([N+](=O)[O-])cc1C(=O)Nc1ccc(OCCF)cc1	Peroxisome proliferator-activated receptor gamma, ligand-binding domain (PPARG, Homo sapiens, UniProt P37231)	binding, scintillation proximity	His-tagged ligand-binding domain	together with: [3H]rosiglitazone	0.0536 ± 0.0062 µM
COc1nc(-c2cccc(-c3ccccc3)c2C)ccc1CNCCNC(=O)CCCCCCCCCCC(=O)N1CCN(CCNC(=O)c2cc3c(=O)n4cccc(C)c4nc3n(CCc3cccs3)c2=N)CC1	Programmed cell death 1 ligand 1 (CD274, Homo sapiens, UniProt Q9NZQ7)	binding, inhibitor, HTRF			0.357 µM
CCn1c(-c2nc3cc(C(=O)N4CCC[C@@H](N)C4)cc(OC)c3n2C)cc2cccnc21	Beta-2 adrenergic receptor (ADRB2, Homo sapiens, UniProt P07550)	antagonist, TR-FRET			> 31.6 µM
CCOCC(=O)N1CCC[C@H](C(=O)NCc2nc(-c3ccc(C#N)cc3)cs2)C1	uncharacterized protein (Plasmodium falciparum, UniProt A0A5K1K7U1+Q8I261+Q8IJT1)	Suc-LLVY-AMC		together with: WLW-vs 0.5 µM	0.024 ± 0.009 µM
CC(C)(C)c1ccccc1Nc1ccc2ncc(OCC3CCNCC3)nc2c1	Protein AF-9 with DOT1L	DOT1L binding, AlphaLISA			3.6 µM
COc1ccccc1OCCNCC(O)COc1cccc2[nH]c3ccccc3c12 (stereo not drawn)	ADRB3 (Homo sapiens, UniProt A8KAG8)	antagonist, cAMP			0.00558 µM
COc1cccc(F)c1-c1nc(-c2ccc(F)cc2)c(-c2ccncc2)[nH]1	CSNK1D	inhibitor			0.0436 ± 0.0069 µM
O=C(NCCO)c1ccc2nc(-c3ccc(OCCCOc4ccc(-c5nc6ccc(C(=O)NCCO)cc6[nH]5)cc4Br)c(Br)c3)[nH]c2c1	Dihydrofolate reductase type 2	enzyme activity		pH 7	> 50 µM
CCc1oc2ccccc2c1C(=O)c1ccc(O)cc1	CYP2E1	p-nitrophenol hydroxylation, inhibitor	baculosomes	10 min, with additive 1 µM	4.6 µM
Cc1ccc(C(=O)Nc2ccc(S(=O)(=O)O)c3cc(S(=O)(=O)O)cc(S(=O)(=O)O)c23)cc1NC(=O)c1cccc(NC(=O)Nc2cccc(C(=O)Nc3cc(C(=O)Nc4ccc(S(=O)(=O)O)c5cc(S(=O)(=O)O)cc(S(=O)(=O)O)c45)ccc3C)c2)c1	mRNA 5′-triphosphatase (Plasmodium falciparum, UniProt C0H484)	enzyme activity, inhibitor			0.5 µM
CC(C)(C)OC(=O)N1CCN(Cc2ccn(Cc3ccc(Cl)cc3)c(=O)c2O)CC1	Prolyl hydroxylase EGLN2 (EGLN2, Homo sapiens, UniProt Q96KS0)	enzyme activity, inhibitor, AlphaScreen		together with: CODD peptide, Fe(II) 10 µM	4.8 µM
CN1CCN(c2ccc(Nc3ncc4cc(C#N)c(=O)n(C5CCCC5)c4n3)cc2)CC1	Serine/threonine-protein kinase TAO3 (TAOK3, Homo sapiens, UniProt Q9H2K8)				2.29 µM
CC[C@@H]1[C@H](F)C(=O)N[C@@H]1COc1nccc2cc(C(N)=O)c(OC)cc12	Phosphorylase b kinase gamma catalytic chain, liver/testis isoform (PHKG2, Homo sapiens, UniProt P15735)	ATP probe binding, KiNativ profiling, item: Lys1 probe site	THP-1 cell lysate		> 5 µM
Cc1ncc(C(=O)N[C@@H](CC(C)C)C(=O)N[C@@H](CC2CCC3CCCCC3C2)C(=O)N[C@H](/C=C/S(C)(=O)=O)Cc2ccc(CN)cc2)s1 (stereo partly drawn)	PSMB5	inhibitor, competitive ABPP	Raji cell lysate	constitutive proteasome β5c	1.2 µM
c1ccc(CN(CCN(Cc2ccccn2)Cc2ccccn2)Cc2ccccn2)cc1	PSMB5	chymotrypsin-like activity, inhibitor, purified 20S proteasome		30 min, pH 7.4, 37 °C, together with: 20 µM Suc-LLVY-AMC	96 µM
Cc1ncc(C(=O)N[C@@H](CC(C)C)C(=O)N[C@@H](CC(C)C)C(=O)N[C@H](/C=C/S(C)(=O)=O)Cc2ccc(CN)cc2)s1	PSMB5	competitive ABPP	Raji cell lysate		> 10 µM
Cc1cnn(Cc2ccc(Cn3cc(C(=O)NCc4ccc5c(N)nccc5c4)cn3)cc2)c1	Prothrombin (F2, Homo sapiens, UniProt P00734)				> 40 µM
CCCCN(NC(=O)[C@H](CC(C)C)NC(=O)[C@H](CC(C)C)NC(=O)OCc1ccccc1)C(=O)C(C)=O	Proteasome component C5/PSMB5	β5 chymotrypsin-like activity, inhibitor		together with: Suc-LLVY-AMC 100 µM	15.1 ± 3.6 µM
COc1ccc(NC(=O)Nc2ccccc2-c2nc(-c3ccoc3)n[nH]2)cc1	RET	kinase activity, inhibitor		replicate one, together with: 1 µM ATP, poly(Glu,Tyr)	19.9 µM
COc1ccnc(CNC(=O)c2cn(Cc3ccc(Cn4ccccc4=O)cc3)nc2C2CC2)c1F	PLG				> 40 µM

Excerpt of the above:
Structure (SMILES)	target	assay	system	conditions	IC50
c1ccc(Oc2ccc(Nc3ccc4ncc(OCC5CCNCC5)nc4c3)cc2)cc1	Protein AF-9 with AF4	AlphaScreen			1.5 ± 0.31 µM
C[C@H](CCC(=O)O)[C@@H]1CC[C@H]2[C@@H]3CCC4=CC(=O)CC[C@]4(C)[C@H]3CC[C@@]21C	AR	reporter gene, antagonist, luciferase reporter	cells expressing human AR	together with: 45 pM agonist	0.134 µM
COc1nc(-c2cccc(-c3ccccc3)c2C)ccc1CNCCNC(=O)CCCCCCCCCCC(=O)N1CCN(CCNC(=O)c2cc3c(=O)n4cccc(C)c4nc3n(CCc3cccs3)c2=N)CC1	Programmed cell death 1 ligand 1 (CD274, Homo sapiens, UniProt Q9NZQ7)	binding, inhibitor, HTRF			0.357 µM
CC[C@@H]1[C@H](F)C(=O)N[C@@H]1COc1nccc2cc(C(N)=O)c(OC)cc12	Phosphorylase b kinase gamma catalytic chain, liver/testis isoform (PHKG2, Homo sapiens, UniProt P15735)	ATP probe binding, KiNativ profiling, item: Lys1 probe site	THP-1 cell lysate		> 5 µM
COc1ccccc1OCCNCC(O)COc1cccc2[nH]c3ccccc3c12 (stereo not drawn)	ADRB3 (Homo sapiens, UniProt A8KAG8)	antagonist, cAMP			0.00558 µM
